Assay results of several laboratories.
Each numbered part is a random draw from the data of one study; scales do not carry over between parts.

Study 1 — method: aptamer microarray, sandwich; molecule type: DNA with 2'F-ANA; medium: in vitro; tested at: 200 nM; added: Cy3 exosite-II aptamer, 400 nM; reading: higher = stronger binding; quantity: mean fluorescence intensity; oligonucleotide: GGTTGGTGTGGTTGG
Target: Prothrombin, mature alpha-thrombin (F2, Homo sapiens, UniProt P00734)
Setting: whole 15-mer aptamer, many near background
2'F-ANA at 2 3 4 5 6 8 11 13: 67.7 a.u.
2'F-ANA at 1 4 7 8 9 10 11 12 13 15: 55.3 a.u.
2'F-ANA at 2 4 8 9 12 14: 155 a.u.
2'F-ANA at 1 3 4 7 11: 192 a.u.
2'F-ANA at 2 4 5 9 10 13 14: 51.6 a.u.
2'F-ANA at 2 3 4 6 7 8 11 12 13: 535 a.u.
2'F-ANA at 2 3 4 6 8 9 13: 325 a.u.
2'F-ANA at 2 3 4 5 7 8 9: 117 a.u.
2'F-ANA at 2 3 6 9 10 11 13 15: 314 a.u.
2'F-ANA at 2 3 4 5 6 7 13: 58.3 a.u.
2'F-ANA at 1 4 5 6 9 12 14: 105 a.u.

Study 2 — method: RNA Bind-n-Seq; molecule type: RNA; medium: in vitro; tested at: 200 nM; setting: whole 134-nt RNA, ends assumed; added: 150 mM KCl; relative to: input library; reading: higher = stronger binding; quantity: log2 enrichment
Target: Ras GTPase-activating protein-binding protein 1, full length (G3BP1, Homo sapiens, UniProt Q13283)
UniProt Q13283, sequence (whole entry, looked up): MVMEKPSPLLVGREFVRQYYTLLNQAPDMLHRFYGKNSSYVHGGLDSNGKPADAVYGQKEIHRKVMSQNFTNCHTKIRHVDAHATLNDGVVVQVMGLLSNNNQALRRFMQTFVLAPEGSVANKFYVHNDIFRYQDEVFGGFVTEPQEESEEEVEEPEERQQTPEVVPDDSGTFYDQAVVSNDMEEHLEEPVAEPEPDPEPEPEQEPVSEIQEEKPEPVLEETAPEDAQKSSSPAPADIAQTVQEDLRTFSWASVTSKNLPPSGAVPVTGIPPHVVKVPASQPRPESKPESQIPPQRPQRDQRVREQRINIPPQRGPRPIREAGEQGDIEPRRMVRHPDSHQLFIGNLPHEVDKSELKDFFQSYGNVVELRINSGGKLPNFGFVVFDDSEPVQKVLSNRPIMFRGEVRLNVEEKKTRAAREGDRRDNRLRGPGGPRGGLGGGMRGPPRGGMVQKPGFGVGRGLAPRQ
Constant ends, left off below: GGGAGUUCUACAGUCCGACGAUC … UGGAAUUCUCGGGUGUCAAGG
GUCCUGUGCUACACAUCGUAUGUACCGAAUCGGAAAAAGGGAAAAAGGGAAAAAGGGGAAAGUAUUAUGUUACGCCGUUCGGAUCUGCAC: -0.354
UCCUGUGCUACACAUCGUAUGUACCGAAUCGGGGAAAAAGGGGUGGGGAAAAAAAGGGGAAAGUAUUAUGUUACGCCGUUCGGAUCUGCA: 0.571
CAAGUCCUGUGCUACACAUCGUAUGUACCGAAUCGGAAAAAGGAGGUUUUUUUGGAAAGUAUUAUGUUACGCCGUUCGGAUCUGCACUUC: -1.06
CUGUGCUACACAUCGUAUGUACCGAAUCGGGGUUUUUUUGGGGUUUUUGGGGUUUUUGGGGAAAGUAUUAUGUUACGCCGUUCGGAUCUG: -0.513
CAAGUCCUGUGCUACACAUCGUAUGUACCGAAUCGGAAAGGGGAAAGGGAAAGGGAAAGUAUUAUGUUACGCCGUUCGGAUCUGCACUUC: 0.182
UCCUGUGCUACACAUCGUAUGUACCGAAUCAAAGUGUGUGUGUAAAGUGUGUGUGUAAAAAAGUAUUAUGUUACGCCGUUCGGAUCUGCA: -0.266
AGUCCUGUGCUACACAUCGUAUGUACCGAAUCGGGGCCCCCGGGCCCCCGGCCCCCGGAAAGUAUUAUGUUACGCCGUUCGGAUCUGCAC: -0.928
UCAAGUCCUGUGCUACACAUCGUAUGUACCGAAUCGGAAAGGUUUUUUUGGAGGAAAGUAUUAUGUUACGCCGUUCGGAUCUGCACUUCC: -1.13

Study 3 — method: RNA Bind-n-Seq; molecule type: RNA; medium: in vitro; tested at: 365 nM; relative to: no-protein control; reading: higher = stronger binding; quantity: RBNS enrichment (R)
Target: RNA binding protein fox-1 homolog 2, RRM domain, GST-SBP tag (RBFOX2, Homo sapiens, UniProt O43251-10, residues 100-194)
Setting: natural RNA segment, single round, ends assumed
Constant ends, left off below: GGGAGUUCUACAGUCCGACGAUC … UGGAAUUCUCGGGUGCCAA
Construct (chain): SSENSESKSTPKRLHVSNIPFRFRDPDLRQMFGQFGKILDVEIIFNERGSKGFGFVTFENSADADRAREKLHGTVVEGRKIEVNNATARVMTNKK
AGGCUCUCUGGAGCAGGGCCUGUAGUGUUAACAAGUUCUCUGGGUGGUUCUAUUCUGAGCACCCCUGUUGCCUCUGACGACCCCCCCCCCACCAAAGGGAAGCAGAGAAG: 0.544
CUAUACAUUUAGGUAAUGAAUGGUAGUAGAACUAAUAGCUUUAACAGGAGAAUAGGGAAUGAGAAAUAGAAAUCCAAGGCUGAAGCCAAAAGUAAGGAGGGUGGCCAAAU: 3.05
UGAUACUAAUAUAAUUAAGUUCAUCUUUGAAAUACAUCUUUGUGCGUAGAGCCAAAAAAAGAGAUAAAAUUAAUAAUAGUUCACUUGUUAUUUGAGAUUAAUUUGGCAUU: 0.339
UUUAAGUGUUCAUGUUCUAGUGAACACAGCUUGUUCAGGAACAAACACUAAAACGAUUUGAGUAGAGGCUGCUGGUCACCUUUUGUGACCUGAGGAAUCCCAGGCCUGUG: 0.419
CUCAAACCCGGGGCGGAGGAUUCCAGGCAGGCUCUAGGAGUCAGGUGUCCGUUUGCUGCUAUCAGUGAGUGGGGGCCAUUGUUUUUUGUUUGUUUGUUUGUUUGUUUGUU: 24.7
UCUUCAGAAAUAUUAUUUGACCUACAGUAUGUUUAAAUCAAUUUAAUAAAAUCACUUUAUAACAGGACCCUAUGUUUCCUGUGUGGUGUAUGAGUUCAGUAGUCCUGGCG: 0.494
UUAACAUUUAGUAAAGUGAUGUAGAUCCAAUGUCAGGAAAGGAAGGACUGUGUUACUGUGCCUCCUCUGACUCAUGUGCUUUUCAGCAUAAUAGACUUAUUUAAUAUUAA: 0.623
UGAUGCCCUCUUCUGGCAUGCAGGCAGAAUACUAUAUAUAGUAAGUAAAUCGUAAAGAGAAAGGAAUUUAAGGGGUUGGAGAGAUGACUCAGUGGCUAAGAGAAUUGGCU: 3.22

Single results of other studies
PhoQ, residues 284 288 289 292 302 303 AGHLVA
fold induction (PhoP, residues 12 14 15 18 19 NMSFL (Escherichia coli, UniProt P23836); Sort-seq, measured: YFP reporter; E. coli; PhoQ-PhoP variant library, added: 10 µM Mg2+; relative to: high Mg2+ state, higher = stronger signaling): 18.9

Repeated from above (study 2):
CAAGUCCUGUGCUACACAUCGUAUGUACCGAAUCGGAAAGGGGAAAGGGAAAGGGAAAGUAUUAUGUUACGCCGUUCGGAUCUGCACUUC: 0.182
CAAGUCCUGUGCUACACAUCGUAUGUACCGAAUCGGAAAAAGGAGGUUUUUUUGGAAAGUAUUAUGUUACGCCGUUCGGAUCUGCACUUC: -1.06
AGUCCUGUGCUACACAUCGUAUGUACCGAAUCGGGGCCCCCGGGCCCCCGGCCCCCGGAAAGUAUUAUGUUACGCCGUUCGGAUCUGCAC: -0.928
UCAAGUCCUGUGCUACACAUCGUAUGUACCGAAUCGGAAAGGUUUUUUUGGAGGAAAGUAUUAUGUUACGCCGUUCGGAUCUGCACUUCC: -1.13
GUCCUGUGCUACACAUCGUAUGUACCGAAUCGGAAAAAGGGAAAAAGGGAAAAAGGGGAAAGUAUUAUGUUACGCCGUUCGGAUCUGCAC: -0.354
